Measurements gathered from unrelated publications.
Target: Cholinesterase (BCHE, Homo sapiens, UniProt P06276)
UniProt P06276, sequence (whole entry, looked up): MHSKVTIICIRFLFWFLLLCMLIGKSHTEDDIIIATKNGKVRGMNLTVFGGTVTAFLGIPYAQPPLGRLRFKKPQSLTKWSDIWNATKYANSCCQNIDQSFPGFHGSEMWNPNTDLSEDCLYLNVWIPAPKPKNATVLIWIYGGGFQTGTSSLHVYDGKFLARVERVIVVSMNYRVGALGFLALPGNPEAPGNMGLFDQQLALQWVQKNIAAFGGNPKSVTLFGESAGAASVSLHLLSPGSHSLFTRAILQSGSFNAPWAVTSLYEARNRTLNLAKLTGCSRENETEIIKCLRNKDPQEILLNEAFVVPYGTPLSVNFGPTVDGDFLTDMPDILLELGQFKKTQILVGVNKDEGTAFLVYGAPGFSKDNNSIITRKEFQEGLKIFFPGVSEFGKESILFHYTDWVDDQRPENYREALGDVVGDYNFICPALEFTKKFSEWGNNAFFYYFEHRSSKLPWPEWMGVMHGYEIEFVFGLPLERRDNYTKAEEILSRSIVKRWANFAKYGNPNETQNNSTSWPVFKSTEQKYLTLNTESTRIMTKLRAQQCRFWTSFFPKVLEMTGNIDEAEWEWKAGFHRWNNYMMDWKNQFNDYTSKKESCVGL
Observed: enzyme activity
Mode: inhibitor

CCS(=O)(=O)N1CCN(CC(=O)Nc2ccc(/C=C/C(=O)c3ccc(OC)c(OC)c3)cc2)CC1
inhibition (Ellman; 100 µM): 24.8%

S=C(NCc1ccccn1)NCc1ccccn1
inhibition (Ellman; 125 µg/mL): 65.7%

O=C(O)CCCC(=O)O
inhibition (Ellman; 125 µg/mL): 50.1%

COc1ccc2[nH]cc(CCNS(=O)(=O)CCc3cn(-c4cc(C)cc(C)c4)nn3)c2c1
inhibition (20 µM): 25.9%

O=c1c(O)c(-c2cc(O)ccc2O)oc2cc(O)cc(O)c12
inhibition (Ellman; 500 µg/mL): 71.1%

O=c1c(O)c(-c2ccc(O)c(O)c2)oc2c(O[C@@H]3O[C@H](CO)[C@@H](O)[C@H](O)[C@H]3O)c(O)cc(O)c12
inhibition (Ellman DTNB; 80000 µM): < 0%

O=C(O)/C=C/c1ccc(O)cc1
inhibition (Ellman; 1000 µg/mL): 83.2%

COc1ccc2[nH]cc(CCNS(=O)(=O)CCc3cn(-c4cnc5ccccc5c4)nn3)c2c1
inhibition (20 µM): 35.4%

O=C(O)/C=C/c1cc(O)cc(O)c1
inhibition (Ellman; 62.5 µg/mL): 48%

Some of these lines once more:
O=C(O)/C=C/c1ccc(O)cc1
inhibition (Ellman; 1000 µg/mL): 83.2%
